Measurements from different studies.
A part holds a random share of what one study measured. Positions count from the first letter of the parent shown.

Set 1
Target: Ras GTPase-activating protein-binding protein 1, RRM domain (G3BP1, Homo sapiens, UniProt Q13283)
Sequence of UniProt Q13283 (whole entry, looked up): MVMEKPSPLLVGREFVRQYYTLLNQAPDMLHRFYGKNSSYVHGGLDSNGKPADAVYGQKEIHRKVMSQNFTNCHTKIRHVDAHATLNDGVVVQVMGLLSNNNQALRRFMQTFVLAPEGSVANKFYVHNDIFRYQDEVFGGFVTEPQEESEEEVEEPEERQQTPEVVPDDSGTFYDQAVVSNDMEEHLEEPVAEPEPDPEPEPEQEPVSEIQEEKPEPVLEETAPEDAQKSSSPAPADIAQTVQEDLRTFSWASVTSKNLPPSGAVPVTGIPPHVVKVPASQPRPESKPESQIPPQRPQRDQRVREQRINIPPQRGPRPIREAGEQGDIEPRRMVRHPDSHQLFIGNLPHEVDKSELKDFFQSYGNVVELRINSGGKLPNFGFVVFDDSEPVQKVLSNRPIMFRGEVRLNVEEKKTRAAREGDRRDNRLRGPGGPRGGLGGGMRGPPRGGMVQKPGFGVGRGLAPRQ
Method: RNA Bind-n-Seq
Molecule type: RNA
Medium: in vitro
Tested at: 1 µM
Notes: whole 134-nt RNA, ends assumed
Added: 150 mM KCl
Reference: input library
Direction: higher = stronger binding
| Oligonucleotide | log2 enrichment |
| --- | --- |
| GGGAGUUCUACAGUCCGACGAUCCUGUGCUACACAUCGUAUGUACCGAAUCGGAAAAAAAGGGGAAAAAAAGGAAAAAAAGGGGAAAGUAUUAUGUUACGCCGUUCGGAUCUGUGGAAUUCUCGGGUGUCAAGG | 0.1 |
| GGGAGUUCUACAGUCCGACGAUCCCUCAAGUCCUGUGCUACACAUCGUAUGUACCGAAUCGGGAGGGAGGGGAGGGAAAGUAUUAUGUUACGCCGUUCGGAUCUGCACUUCCAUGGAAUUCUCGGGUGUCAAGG | 0.919 |
| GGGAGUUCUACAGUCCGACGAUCUGGGAGGUGGAUUUUGUUUAUUUUUUUAGCUCAUUUCCAGGGGUGGGAAUUUUUUUUUAAUAUGCGUCAUGAAUAAAGUUGUUUUUGAAAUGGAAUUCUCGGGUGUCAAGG | 1.63 |
| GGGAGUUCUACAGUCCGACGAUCAGUCCUGUGCUACACAUCGUAUGUACCGAAUCGGGGUGGGGAGGGGAAAAAAAGGGGAAAGUAUUAUGUUACGCCGUUCGGAUCUGCACUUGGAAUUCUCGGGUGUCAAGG | 0.821 |
| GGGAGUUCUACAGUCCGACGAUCGUCCUGUGCUACACAUCGUAUGUACCGAAUCAAAUUUAAACCCCCCCAAAUUUUUAAAAAAGUAUUAUGUUACGCCGUUCGGAUCUGCACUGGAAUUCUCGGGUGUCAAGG | -0.0994 |
| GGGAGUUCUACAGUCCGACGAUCUGUGCUACACAUCGUAUGUACCGAAUCGGGGAAAAAAAGGGGUUUUUUUGGGGUUUUUGGGGAAAGUAUUAUGUUACGCCGUUCGGAUCUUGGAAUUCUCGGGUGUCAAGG | 1.12 |
| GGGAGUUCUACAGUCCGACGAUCGCAGGAAGUAAAAACAAAUGGAAAUGCCUCGGAUAGUGGCAGGGGUGGGGGUUGCUAAGGAAAGGGUGGGAUGGGAGUGGGUAAAGAGUUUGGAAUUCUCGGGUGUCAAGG | 1.2 |
| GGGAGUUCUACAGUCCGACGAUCUGCAUCUGCACUGGAGAAAUGGAAGACAGCAAUCCGGGAAGCUCAGACUUUCUCCAGGAUGCACGUGCUGCUUGGGAUGCUUGAUGCCUGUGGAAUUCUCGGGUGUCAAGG | -0.0552 |
| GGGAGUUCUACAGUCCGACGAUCCAAUGGGAAUGGACCAAAGAGUUUCAGGGAAACUCCAGUAUAUUCCAGAGUCAGAUCUAAGCUCCAGGCACGCCUGAAGAUGUGUUGCUAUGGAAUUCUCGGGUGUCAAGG | -0.0105 |

Set 2
Target: Histone acetyltransferase KAT6A, winged helix 2, GST fusion (KAT6A, Homo sapiens, UniProt Q92794, residues 85-181)
Method: protein binding microarray
Molecule type: double-stranded DNA, one strand shown
Medium: in vitro
Tested at: not given
Notes: 8-mer, flanks averaged, mean of 2 arrays, mostly near background
Reference: not given
Direction: higher = stronger binding
Residues (chain): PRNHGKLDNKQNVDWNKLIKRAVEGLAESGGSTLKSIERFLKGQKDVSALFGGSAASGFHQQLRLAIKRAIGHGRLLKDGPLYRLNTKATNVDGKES
| Oligonucleotide | E-score |
| --- | --- |
| TGGACCCA | -0.148 |
| ACCTCCAT | -0.178 |
| CTAGCCAG | -0.091 |
| AGTTATTA | -0.0692 |
| CGACTTAG | -0.00808 |
| CGTCGGAG | 0.109 |
| GATTGGGA | -0.0374 |
| CCAGAGCC | 0.0447 |
| AATACCTC | 0.114 |
| GTGCAGAA | -0.0205 |
| CGATGGCC | 0.00928 |
| ACATTGTC | -0.0528 |
| CAGGGACC | 0.0178 |
| ACCTAACC | 0.0545 |
| TCCAGCAA | 0.0578 |
| CCTGGGTA | 0.00587 |
| ATGGAATG | 0.000865 |
| AGGGGGTC | -0.0991 |
| CAAGTTGA | -0.138 |
| CGCAAAGC | 0.212 |
| TCTGCAAA | 0.0419 |
| CGCTGATC | 0.0688 |
| AAGTGATC | -0.083 |
| CTTCAATC | -0.00675 |
| CGGAAGTA | -0.119 |

Set 3
Target: RNA binding protein fox-1 homolog 2, RRM domain, GST-SBP tag (RBFOX2, Homo sapiens, UniProt O43251-10, residues 100-194)
Method: RNA Bind-n-Seq
Molecule type: RNA
Medium: in vitro
Tested at: 365 nM
Notes: natural RNA segment, single round, ends assumed
Reference: no-protein control
Direction: higher = stronger binding
| Oligonucleotide | RBNS enrichment (R) |
| --- | --- |
| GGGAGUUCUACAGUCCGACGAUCGUGUGGCACCCAGUUUUUCCAUGUAGGUCAUUAUACCUGGAUGAUAACAUCAAUUUAGUUACAAUGCAUGUAGUUUGCACAAUGAUUAAAAUGAAUAGGUUUGUGUUUAUUGGAAUUCUCGGGUGCCAA | 1.58 |
| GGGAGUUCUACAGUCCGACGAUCAAGGCUUUUUCAGGGAAAACAAACAAACCGAUUUUAUAAGUCCAAUCAUCCCCGUGACCUCCUCAGCUGCUGACAAUCCUAUUUAGCAUAUGCAAAUCUUUUAUUGUAGAUGGAAUUCUCGGGUGCCAA | 0.451 |
| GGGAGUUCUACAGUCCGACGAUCUUAGUCCUUGUCAGCCUCACAGAGGUCUGCGCCCGACACUUCUGCCCUUUGAGACAAAAGAAACAGGCCCAGCACGAGUGGAAGUGGGUGUCUGUGUUUCUGUUUGCACUUGGAAUUCUCGGGUGCCAA | 2.17 |
| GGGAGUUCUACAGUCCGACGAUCCUUAACCAAAAGAUACAGUAACAUAGCCAUGUACUGUGGUUGGGACAGAUACAGUCUCCUUGGCUUAUAGGACUUCCUAGCUACACUUUCCUUAGCGCAUUAAUGUGAUGUGGAAUUCUCGGGUGCCAA | 0.401 |
| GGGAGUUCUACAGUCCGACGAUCUAACCUCUUUUAUAAAAAUUUUCCUAGAAGGUUUAUACUGCCUUCUUGCUUUAAAGCAAUUGGUCUAAAAUAUAUGUAAUCGUCUUAAUUAAAAAGUUGCAGUAGGGUUGUGGAAUUCUCGGGUGCCAA | 0.542 |
| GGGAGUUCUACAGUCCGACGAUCGCUGCUAAAUGCUAUCUUUAGGUGUGUGAAAGUUCUUUGAUAUGUUAUUGUCCUUUUACAUCUUGUUAAAUAGCCAUUGCUUUUGAGAAUCAGAUAGUGUGUUGUUUAGGUGGAAUUCUCGGGUGCCAA | 5.05 |
| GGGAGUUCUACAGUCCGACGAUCAGUUAUUUAUUUGUUAACGCUGGCUGUGGAAACCCCAGUUCUUGGGGGGAGAAACAGGACUUUUUACAUAAAAUAGGAGCUGCAAAAGCAAAAAGAAUAUCUUCUAAAGAUGGAAUUCUCGGGUGCCAA | 0.471 |
| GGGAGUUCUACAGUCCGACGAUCCUAGACACUCCUUGAAAUGUGUGUGUGAUGGAGGGAAGGGGACAGAUUUGAGGACUGAAGCUGGGGCUUGGGGAUUGCCACUAAGUACAGCUGACGGUUUCUCCCCGGACUGGAAUUCUCGGGUGCCAA | 3.24 |

Set 4
Target: ABI1, truncated, D143A, DHFR fusion (Arabidopsis thaliana)
Method: DHFR PCA, deep sequencing
Medium: yeast
Notes: methotrexate growth selection, single substitutions
Added: (+)-ABA 58 µM
Reference: wild-type fitted maximum
Direction: higher = stronger binding
Starting sequence: PYL1, truncated, DHFR fusion (Arabidopsis thaliana); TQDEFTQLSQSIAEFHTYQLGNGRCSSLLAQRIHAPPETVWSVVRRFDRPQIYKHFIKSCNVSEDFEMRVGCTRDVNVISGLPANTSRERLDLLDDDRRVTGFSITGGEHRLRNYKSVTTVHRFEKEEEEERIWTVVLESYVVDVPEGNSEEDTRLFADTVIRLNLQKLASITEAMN; partner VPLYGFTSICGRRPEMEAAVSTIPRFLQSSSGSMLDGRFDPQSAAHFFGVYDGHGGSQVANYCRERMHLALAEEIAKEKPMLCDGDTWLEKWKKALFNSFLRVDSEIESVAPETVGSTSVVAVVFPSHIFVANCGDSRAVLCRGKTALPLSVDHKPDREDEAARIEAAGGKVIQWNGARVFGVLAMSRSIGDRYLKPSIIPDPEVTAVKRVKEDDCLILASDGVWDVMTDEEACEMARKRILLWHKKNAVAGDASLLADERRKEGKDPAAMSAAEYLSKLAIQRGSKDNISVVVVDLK
| Variant | relative binding score [%] |
| --- | --- |
| P83R | 1.47 |
| R49C | 79.8 |
| L28R | 68.4 |
| R46C | 82.7 |
| E128M | 91.5 |
| R45Y | -1.61 |
| Q2N | 85.2 |
| P146S | 40.3 |
| F15A | 25.6 |
| D48Y | 7.89 |
| C25H | 27.1 |
| F103G | -2.86 |
| H122V | 27.5 |
| C60N | 2.16 |
| R163G | 70.6 |
| E67K | 82.3 |
| R69V | 87.1 |
| V78T | 70 |
| A170F | -18.5 |
| T6L | 89 |
| V40E | -9.73 |
| V70Y | 30.8 |
| T1W | 80.5 |
| P146R | 4.27 |

For quick reference, copied from above (set 3):
| Oligonucleotide | RBNS enrichment (R) |
| --- | --- |
| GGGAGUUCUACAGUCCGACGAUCGUGUGGCACCCAGUUUUUCCAUGUAGGUCAUUAUACCUGGAUGAUAACAUCAAUUUAGUUACAAUGCAUGUAGUUUGCACAAUGAUUAAAAUGAAUAGGUUUGUGUUUAUUGGAAUUCUCGGGUGCCAA | 1.58 |
| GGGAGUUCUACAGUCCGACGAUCAAGGCUUUUUCAGGGAAAACAAACAAACCGAUUUUAUAAGUCCAAUCAUCCCCGUGACCUCCUCAGCUGCUGACAAUCCUAUUUAGCAUAUGCAAAUCUUUUAUUGUAGAUGGAAUUCUCGGGUGCCAA | 0.451 |
| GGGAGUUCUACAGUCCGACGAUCUUAGUCCUUGUCAGCCUCACAGAGGUCUGCGCCCGACACUUCUGCCCUUUGAGACAAAAGAAACAGGCCCAGCACGAGUGGAAGUGGGUGUCUGUGUUUCUGUUUGCACUUGGAAUUCUCGGGUGCCAA | 2.17 |
| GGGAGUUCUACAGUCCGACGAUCCUUAACCAAAAGAUACAGUAACAUAGCCAUGUACUGUGGUUGGGACAGAUACAGUCUCCUUGGCUUAUAGGACUUCCUAGCUACACUUUCCUUAGCGCAUUAAUGUGAUGUGGAAUUCUCGGGUGCCAA | 0.401 |
| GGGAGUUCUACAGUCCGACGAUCUAACCUCUUUUAUAAAAAUUUUCCUAGAAGGUUUAUACUGCCUUCUUGCUUUAAAGCAAUUGGUCUAAAAUAUAUGUAAUCGUCUUAAUUAAAAAGUUGCAGUAGGGUUGUGGAAUUCUCGGGUGCCAA | 0.542 |
| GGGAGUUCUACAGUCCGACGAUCGCUGCUAAAUGCUAUCUUUAGGUGUGUGAAAGUUCUUUGAUAUGUUAUUGUCCUUUUACAUCUUGUUAAAUAGCCAUUGCUUUUGAGAAUCAGAUAGUGUGUUGUUUAGGUGGAAUUCUCGGGUGCCAA | 5.05 |
| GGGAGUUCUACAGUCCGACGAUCAGUUAUUUAUUUGUUAACGCUGGCUGUGGAAACCCCAGUUCUUGGGGGGAGAAACAGGACUUUUUACAUAAAAUAGGAGCUGCAAAAGCAAAAAGAAUAUCUUCUAAAGAUGGAAUUCUCGGGUGCCAA | 0.471 |
| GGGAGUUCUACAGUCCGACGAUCCUAGACACUCCUUGAAAUGUGUGUGUGAUGGAGGGAAGGGGACAGAUUUGAGGACUGAAGCUGGGGCUUGGGGAUUGCCACUAAGUACAGCUGACGGUUUCUCCCCGGACUGGAAUUCUCGGGUGCCAA | 3.24 |
